Results of several laboratories.
Parts stem from different laboratories: compare values within a part only.

Study 1
Target: Ras GTPase-activating protein-binding protein 1, C-terminal RGG region (G3BP1, Homo sapiens, UniProt Q13283)
UniProt Q13283, sequence (whole entry, looked up): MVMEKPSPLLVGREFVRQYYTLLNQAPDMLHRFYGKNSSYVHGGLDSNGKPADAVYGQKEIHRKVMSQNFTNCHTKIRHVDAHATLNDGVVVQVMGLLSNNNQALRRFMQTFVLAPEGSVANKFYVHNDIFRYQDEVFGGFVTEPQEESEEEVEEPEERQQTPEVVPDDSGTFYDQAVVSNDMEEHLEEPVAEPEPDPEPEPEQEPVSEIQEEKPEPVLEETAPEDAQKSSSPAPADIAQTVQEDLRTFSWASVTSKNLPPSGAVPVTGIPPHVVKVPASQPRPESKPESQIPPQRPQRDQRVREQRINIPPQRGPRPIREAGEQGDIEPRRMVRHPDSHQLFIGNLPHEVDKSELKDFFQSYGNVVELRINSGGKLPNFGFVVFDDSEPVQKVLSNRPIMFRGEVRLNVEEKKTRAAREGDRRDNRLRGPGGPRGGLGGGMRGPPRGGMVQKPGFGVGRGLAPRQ
Method: RNA Bind-n-Seq
Molecule type: RNA
Sample: in vitro
Concentration: 1 µM
Setting: whole 134-nt RNA, ends assumed
Added: 150 mM KCl
Baseline: input library
Direction: higher = stronger binding
Quantity: log2 enrichment
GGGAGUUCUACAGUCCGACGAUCUAACUUUAGAGGAGGAUCUGAUGGAUAUGGCAGUGGACGUGGAUUUGGGGAUGGCUAUAAUGGGUAUGGAGGAGGACCUGGAGGUGGCAUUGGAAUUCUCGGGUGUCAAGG: -0.746
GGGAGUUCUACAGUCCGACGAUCUGGGAGGUGGAUUUUGUUUAUUUUUUUAGCUCAUUUCCAGGGGUGGGAAUUUUUUUUUAAUAUGUGUCAUGAAUAAAGUUGUUUUGGAAAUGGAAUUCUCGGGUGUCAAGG: 2.47
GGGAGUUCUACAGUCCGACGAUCAACAUGCAGGUGGGCAUCUUUGGGAAGUGGGGCAAGGGGGGGAUAGGGAGGGGGGUAACACUUUGGGAACAGGUGGUCCCAGGUCGUUUCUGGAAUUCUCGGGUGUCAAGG: -1.1
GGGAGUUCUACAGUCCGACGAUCCACAGACAACACGCACCCACACAGACAGAGAGGGAAGGGGUUGGGAUGGGGACAGGGUGCACAGCAGGGCGGGGUAGGACCCCAGCCCCUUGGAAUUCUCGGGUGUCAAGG: -0.0816
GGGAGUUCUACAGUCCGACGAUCAUUUCUCAGUUGAAGGAUGCUUACACUCUUGUCCAUCUAGACCUCAAUUACUGUUUUUCAGGAAUGUCUGAUCACAGAUACGGGGAUGGUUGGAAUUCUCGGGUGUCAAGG: -1.17
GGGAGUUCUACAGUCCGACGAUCCCUCAAGUCCUGUGCUACACAUCGUAUGUACCGAAUCGGUGGUGGUUUUUGGAAAGUAUUAUGUUACGCCGUUCGGAUCUGCACUUCCAGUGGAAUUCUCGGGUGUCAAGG: -0.45
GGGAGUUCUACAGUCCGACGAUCGUCCUGUGCUACACAUCGUAUGUACCGAAUCAAACCCCCCCAAAUUUUUAAACCCAAAAAAGUAUUAUGUUACGCCGUUCGGAUCUGCACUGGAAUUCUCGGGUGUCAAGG: -0.524
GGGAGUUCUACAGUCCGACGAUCUCAAGUCCUGUGCUACACAUCGUAUGUACCGAAUCGGUUUGGUUUGGGUUUGGGAAAGUAUUAUGUUACGCCGUUCGGAUCUGCACUUCCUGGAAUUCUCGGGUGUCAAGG: -1.11
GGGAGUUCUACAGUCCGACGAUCCAAGUCCUGUGCUACACAUCGUAUGUACCGAAUCGGGGAAAGGGGUGGGGUGGGGAAAGUAUUAUGUUACGCCGUUCGGAUCUGCACUUCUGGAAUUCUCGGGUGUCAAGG: 2.69

Study 2
Target: Histone acetyltransferase KAT6A, winged helix 2, GST fusion (KAT6A, Homo sapiens, UniProt Q92794, residues 85-181)
Method: protein binding microarray
Molecule type: double-stranded DNA, one strand shown
Sample: in vitro
Concentration: not given
Setting: 8-mer, flanks averaged, mean of 2 arrays, mostly near background
Baseline: not given
Direction: higher = stronger binding
Quantity: E-score
Construct (chain): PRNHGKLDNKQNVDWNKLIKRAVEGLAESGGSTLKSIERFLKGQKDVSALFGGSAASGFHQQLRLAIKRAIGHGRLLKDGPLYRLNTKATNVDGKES
ATAGAGAC: -0.176
GATGTACC: -0.019
AGTTGAGA: -0.195
CGTCCGTA: -0.111
GGCTTCGA: 0.0922
GTAGCAAA: 0.0947
TATGGGCA: 0.0586
GACGCCCA: -0.021
ACACGGAC: 0.0293
ACACTCTA: -0.0143
CCGTTACG: -0.104
AGGTGGAT: 0.0505
CTAAAGAA: 0.0753
TACCGACA: -0.0575
GACGGCAA: 0.14
GCTTTGAA: 0.128
AAAGAGGG: -0.0162
CCCGGGCG: 0.256
GGATTGTA: -0.0303
AAAGTGGC: 0.0348
GGCGATGA: -0.0772
ACCAACAG: -0.12
GGGCATCA: 0.163
GCAATGAC: 0.0452
CTGAACGC: 0.0255

Study 3
Target: RING finger protein unkempt homolog, zinc fingers 1-6, GST-SBP tag (UNK, Homo sapiens, UniProt Q9C0B0, residues 30-357)
Method: RNA Bind-n-Seq
Molecule type: RNA
Sample: in vitro
Concentration: not given
Setting: RNA with constant flanks, ends assumed
Baseline: input RNA pool
Direction: higher = stronger binding
Quantity: bound/input enrichment
Residues (chain): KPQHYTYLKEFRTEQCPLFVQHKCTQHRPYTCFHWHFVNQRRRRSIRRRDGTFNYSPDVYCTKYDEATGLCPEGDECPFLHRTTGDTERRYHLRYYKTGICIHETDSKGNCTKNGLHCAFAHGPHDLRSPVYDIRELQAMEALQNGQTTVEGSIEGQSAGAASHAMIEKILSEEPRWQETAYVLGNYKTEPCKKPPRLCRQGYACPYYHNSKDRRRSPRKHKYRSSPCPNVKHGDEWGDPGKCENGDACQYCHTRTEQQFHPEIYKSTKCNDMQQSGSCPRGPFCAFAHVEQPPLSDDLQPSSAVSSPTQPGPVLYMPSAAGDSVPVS
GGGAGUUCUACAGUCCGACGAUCGAAGACUUCUGCCGAGAAGGUCUAUCUGAUAUCUUACCCAUUCUGCAUGGUUUAUGCCUGCCGUUGAGCCCAUUGUUGUGAAAUCUGUCCUUGUCCAGUACCUAGAUCUGUGGAGGUCAACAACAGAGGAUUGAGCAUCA: 0.269 ratio
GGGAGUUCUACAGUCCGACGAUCAAGUUAGAGAUAAUGUCUACUGGAAAUUUUACCUUUGAGUCAAGUUUUGUGUCAGUGCUUCCGCAUUUUUGAGAAUGUGUUUGAUAUCACAGUGUUUGUAAAUUCGAUGAAAAUGUAUUUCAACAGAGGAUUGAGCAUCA: 0.265 ratio
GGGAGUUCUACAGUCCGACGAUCCCUACAAUAAUGAAAACCUACAGGAAUUUUUUUAUUUUUCAUUUUCCCCUUAGGCAUAUUCCGUAUUUUUCCCCCAGGCAGAUCAUUCUGAGUGUGCGAGUGUGUGUGCACAUGUUACAACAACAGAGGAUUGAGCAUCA: 12.9 ratio
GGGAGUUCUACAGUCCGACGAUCGAUUUCCUCACGUGCUCGCUUCGGCAGCACAUAUACUAAAAUUGGGACAAUACAGAGAAGAUCCGCGUGGCCCCUGCGCAAGGAUGACACGCAAAUUCGUGAAGCGUUCCAUAUUUUUGUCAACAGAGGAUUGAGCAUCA: 0.0688 ratio
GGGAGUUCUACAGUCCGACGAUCCCUGUUUUUGCCUCUCUCUGGCUUCUGGAAAGUGCUCCUUCAUGACAUCCCCUAUCUGCACCGUUCAAGCACCCCAAAUCUGCCCCUUCCUCCUUAAAGACUGGUAGAUGGGAUCAGCUCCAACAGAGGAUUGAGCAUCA: 0.454 ratio
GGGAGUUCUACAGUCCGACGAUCCUGAAGUCAGGAAUGUCUCCUGAGCAGAGUAAGACUAAACCUGACUCUAGCAUAUAUCCUUCCGCCGACUCUAAAUCUUUUCUGGUGCAGAGCAGAUUGGAGCCUUCUGAAUUAAAAGAGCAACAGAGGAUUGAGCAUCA: 0.305 ratio
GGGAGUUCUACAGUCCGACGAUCGGCUGUGGAAUUAGUCCAGAGAUUCAUUGCGAUGGUGGCCACACCUUCAGACCGCCUUCUGUCCGUAACUACUGCAUCUGUGACAUUACAAAUGGCAAUCACAGUGUGGAUGAGAUGCAACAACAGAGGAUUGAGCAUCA: 0.0957 ratio
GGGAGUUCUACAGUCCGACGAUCGGCUCUGCACAGAAGGGCCUGCAAGUGGAUCUGCAGUCUGACGGGGCAGCAGCAGAAGAUACCGUGGCAAGUGAGCAGUCUCUAGGCCAAAAACUUGUGAUCUGGGGAACAGAUGUAAAUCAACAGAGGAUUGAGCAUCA: 0.202 ratio

Study 4
Target: RNA binding protein fox-1 homolog 2, RRM domain, GST-SBP tag (RBFOX2, Homo sapiens, UniProt O43251-10, residues 100-194)
Method: RNA Bind-n-Seq
Molecule type: RNA
Sample: in vitro
Concentration: 365 nM
Setting: natural RNA segment, single round, ends assumed
Baseline: no-protein control
Direction: higher = stronger binding
Quantity: RBNS enrichment (R)
Target sequence (chain): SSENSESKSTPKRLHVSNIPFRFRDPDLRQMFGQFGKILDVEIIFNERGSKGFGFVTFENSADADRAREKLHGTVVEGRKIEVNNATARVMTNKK
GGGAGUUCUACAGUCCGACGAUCACAGUGCCUAUACAUUGGACAAAAAGUCCAAGGAGAGCCAAACUAGUGCAGUAAACGUUUGUACCCAAGUCCUCACCACCAGUCAUGAGUUGGCCUGUCACUUAAGUCAUUGGAAUUCUCGGGUGCCAA: 0.494
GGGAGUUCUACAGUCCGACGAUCGACAACUGAGUAGCUCCCUUGGCCCCUCCUCCAUCCUCUCACACCCUGUGCUCCGUUCCUCAGCCGUUUGGACAGGGAGCUCCGCUGUCACCAAGGAGCCCAUGUGAGACUGGAAUUCUCGGGUGCCAA: 0.416
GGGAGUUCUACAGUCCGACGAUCAGCACAAAGUGCAUCUCAGAGAUGUGCUAGUGGCUUAUCCUGGGCUUGGCCUGCAACAUGGGAGGCUUGGGACGGGGGUCUUGGACCUGCUCAUGACCCCUGAGCAGCCUUGGAAUUCUCGGGUGCCAA: 0.344
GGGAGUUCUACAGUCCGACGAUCGCGGAAGGUUUCUUUAUGUUAUUUUGUUAAUUUAUUGGGACUCUGUGUAAGGCCAGGCUUUAGUGGUCAUUAGACACCACAUGUGUUAUGAGCCCCUUACCCAUAGGGUUUGGAAUUCUCGGGUGCCAA: 0.448
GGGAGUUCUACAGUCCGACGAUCAGGGAUCCCGUUUCAUGCUGAAGGCCGGCACCCCUGUUCUUAAUGGGUAAGAAUUUCCGCUCCUACUUGCUAGAUCUGCGAAAUACUAGCACUCCUUUCAAGGGUGUUGGUGGAAUUCUCGGGUGCCAA: 0.236
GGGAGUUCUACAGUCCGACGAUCAAUGGGAUGUGGCCAUGGCAUUGCUAGAAUAUGGUGUGCUUUUAGAACAAAUGUGGCCUUCUCAUGCCAUUUCCAGUAAUGACGCAGAGGAGGACGUGUUGCCUCAGAACUGGAAUUCUCGGGUGCCAA: 0.407
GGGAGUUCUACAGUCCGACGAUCAUUUUAAGAUAGGCGAGCACACACUAAUAAUAUCUAUGCCUACCUUCUUGGGUGGACUCAACUGUAACCACAGUUUAUUAGUUGCUUAGAAGUGGAUUUUUAAAAAACAGUGGAAUUCUCGGGUGCCAA: 0.617
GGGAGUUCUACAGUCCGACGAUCAUUGUUUCAUAGCAAGAAUUCGUUGCAAAAAUGCUUUAUUUUUGAACAAUGCUUGGAAAUAUUAUGUGACUUUUUUGUUUGUUUGUUUUAGGAGGAUGGUGUAUGGUGGGUGGAAUUCUCGGGUGCCAA: 1.78

For quick reference, copied from above (study 2):
GCAATGAC: 0.0452
GACGGCAA: 0.14
CGTCCGTA: -0.111
ACCAACAG: -0.12
CCGTTACG: -0.104
AGGTGGAT: 0.0505
GTAGCAAA: 0.0947
GGCTTCGA: 0.0922
